Published values collected from several papers.

SMILES | organism | test | system | conditions | inhibition [%]
Cc1ccc(N2CCN(C)CC2)cc1C(=O)NC1(c2ccc3c4c(cccc24)CC3)CC1 | SARS-CoV-2 | viral replication | Vero C1008, Omicron BA.5 | 0.01715 µM | 0
COC(=O)[C@]1(C)CCC[C@]2(C)[C@H]3C[C@H]4C(C(C)C)=C[C@]3(CC[C@H]21)[C@H]1[C@@H]4[C@@H](OCC#CCN2CCOCC2)CC[C@@H]1O | SARS-CoV-2 pseudovirus | pseudovirus infection | BHK-21-hACE2 | 20.0 µM | 34
Cc1ccc(N2CC3CC(C2)N3)cc1C(=O)NC1(c2ccc3c4c(cccc24)C(=O)N3C)CC1 | SARS-CoV-2 | viral replication | Vero C1008, XBB.1 | 0.01715 µM | 25
O=[N+]([O-])c1ccc(-n2nc(-c3ccc(F)cc3)cc2-c2ccc(F)cc2)c([N+](=O)[O-])c1 | Japanese encephalitis virus | viral replication, item: viral RNA | SA14-14-2, mice, brain | ip, 100 mg/kg/day, 120 h | 43.7
Cc1oc2nc1C(=O)N[C@](C)(C(=O)NCCc1ccccc1)c1nc(c(C)o1)C(=O)N[C@](C)(C(=O)NCCc1ccccc1)c1nc(c(C)o1)C(=O)N[C@]2(C)C(=O)NCCc1ccccc1 | SARS-CoV-2 | viral adsorption | Vero E6, NRC-03-nhCoV | 20 µM | 11
CCN(CC)CC#CCOC(=O)[C@]1(C)CCC[C@]2(C)[C@H]3C[C@H]4C(C(C)C)=C[C@]3(CC[C@H]21)[C@@H]1C(=O)OC(=O)[C@@H]14 | SARS-CoV-2 pseudovirus | pseudovirus infection | BHK-21-hACE2 | 20.0 µM | 38.9
Cc1ccc(N2CC(N3CCC(C)(O)CC3)C2)cc1C(=O)NC1(c2ccc3c4c(cccc24)C(=O)N3C)CC1 | SARS-CoV-2 | viral replication | Vero C1008, XBB.1 | 0.1543 µM | 90
O=S(=O)(O)c1c2ccccc2c(-c2c3nc(c(-c4c5ccccc5c(S(=O)(=O)O)c5ccccc45)c4ccc([nH]4)c(-c4c5ccccc5c(S(=O)(=O)O)c5ccccc45)c4nc(c(-c5c6ccccc6c(S(=O)(=O)O)c6ccccc56)c5ccc2[nH]5)C=C4)C=C3)c2ccccc12 | Orthopoxvirus vaccinia | viral replication | – | 50 µg/mL, 24 h | 89
CC(C)C1=CC2=CC[C@@H]3[C@](C)(CCC[C@@]3(C)C(=O)OCC#CCN3CCOCC3)[C@H]2CC1 | SARS-CoV-2 pseudovirus | pseudovirus infection | BHK-21-hACE2 | 20.0 µM | 28.4
O=C(C=Cc1ccc(O)c(O)c1)OC1CC(O)(C(=O)O)CC(OC(=O)C=Cc2ccc(O)c(O)c2)C1O (centres unmarked) | Severe acute respiratory syndrome coronavirus 2 | cytopathic effect, inhibitor | Vero C1008 | 100 µM | 8.33
COC(=O)c1cc2c(=O)n3ccccc3nc2n1Cc1ccccc1 | Severe acute respiratory syndrome coronavirus 2 | viral replication | Vero | 10 µM | 65.8
CC(C)CC(C(=O)N1CC2(CC1C#N)C(=O)Nc1ccccc12)N(C)C(=O)c1cc2c(F)cc(F)c(F)c2[nH]1 (centres unmarked) | pangolin coronavirus | viral replication | – | 1 µM | 100
CCN(CC)CC#CCOC(=O)[C@]1(C)CCC[C@@]2(C)[C@H]1CC=C1C=C(C(C)C)CC[C@@H]12 | SARS-CoV-2 pseudovirus | pseudovirus infection | BHK-21-hACE2 | 20.0 µM | 43.3
N=C(N)NCc1cn([C@@H]2[C@@H](OCCn3cc(-c4cc(OCCOCCO)c(C#Cc5cc(OCCOCCO)c(C#Cc6cc(OCCOCCO)c(-c7cn(CCO[C@H]8O[C@H](CO)[C@@H](O)[C@H](O)[C@@H]8n8cc(CNC(=N)N)nn8)nn7)cc6OCCOCCO)cc5OCCOCCO)cc4OCCOCCO)nn3)O[C@H](CO)[C@@H](O)[C@@H]2O)nn1.O=CO.O=CO | rVSV-luc pseudotyped with SARS-CoV-2 S | L-SIGN-mediated trans-infection | Jurkat expressing L-SIGN | 5 µM | 98.5
Cc1oc2nc1C(=O)N[C@](C)(C(=O)OC(C)C)c1nc(c(C)o1)C(=O)N[C@](C)(C(=O)OC(C)C)c1nc(c(C)o1)C(=O)N[C@]2(C)C(=O)OC(C)C | SARS-CoV-2 | virucidal activity | Vero E6, NRC-03-nhCoV | 5 µM | 12
CC(C)C1=CC2=C(C=O)C[C@@H]3[C@](C)(CCC[C@@]3(C)C(=O)OCC#CCN3CCOCC3)[C@H]2CC1 | SARS-CoV-2 pseudovirus | pseudovirus infection | BHK-21-hACE2 | 20.0 µM | 48.1
Cc1ccc(N2CC(N3CCC(C)(O)CC3)C2)cc1C(=O)NC1(c2ccc3c4c(cccc24)CC3)CC1 | SARS-CoV-2 | viral replication | Vero C1008, XBB.1 | 0.01715 µM | 0
CC(C)C1=CC2=CC[C@@H]3[C@](C)(CCC[C@@]3(C)C(=O)OCC#CCN3CCCC3)[C@H]2CC1 | SARS-CoV-2 pseudovirus | pseudovirus infection | BHK-21-hACE2 | 20.0 µM | > 60
Cc1oc2nc1C(=O)N[C@](C)(C(=O)O)c1nc(c(C)o1)C(=O)N[C@](C)(C(=O)O)c1nc(c(C)o1)C(=O)N[C@]2(C)C(=O)O | SARS-CoV-2 | viral replication | Vero E6, NRC-03-nhCoV | 20 µM | 38
Cc1ccc(N2CC3CC(C2)N3C)cc1C(=O)NC1(c2ccc3c4c(cccc24)C(=O)N3C)CC1 | SARS-CoV-2 | viral replication | Vero C1008, Omicron BA.5 | 12.5 µM, 72 h | 100

A few entries again:
SMILES | organism | test | system | conditions | inhibition [%]
O=S(=O)(O)c1c2ccccc2c(-c2c3nc(c(-c4c5ccccc5c(S(=O)(=O)O)c5ccccc45)c4ccc([nH]4)c(-c4c5ccccc5c(S(=O)(=O)O)c5ccccc45)c4nc(c(-c5c6ccccc6c(S(=O)(=O)O)c6ccccc56)c5ccc2[nH]5)C=C4)C=C3)c2ccccc12 | Orthopoxvirus vaccinia | viral replication | – | 50 µg/mL, 24 h | 89
CC(C)C1=CC2=CC[C@@H]3[C@](C)(CCC[C@@]3(C)C(=O)OCC#CCN3CCOCC3)[C@H]2CC1 | SARS-CoV-2 pseudovirus | pseudovirus infection | BHK-21-hACE2 | 20.0 µM | 28.4
O=C(C=Cc1ccc(O)c(O)c1)OC1CC(O)(C(=O)O)CC(OC(=O)C=Cc2ccc(O)c(O)c2)C1O (centres unmarked) | Severe acute respiratory syndrome coronavirus 2 | cytopathic effect, inhibitor | Vero C1008 | 100 µM | 8.33
